Measurements gathered from unrelated publications.
Each line is one published result; not all experiments were run side by side. Values joined by “and” are separate records of one study, mostly repeats; a detail may differ. Numbers after ± are the reported error.
Chain of UniProt Q9HC35 (whole entry, looked up): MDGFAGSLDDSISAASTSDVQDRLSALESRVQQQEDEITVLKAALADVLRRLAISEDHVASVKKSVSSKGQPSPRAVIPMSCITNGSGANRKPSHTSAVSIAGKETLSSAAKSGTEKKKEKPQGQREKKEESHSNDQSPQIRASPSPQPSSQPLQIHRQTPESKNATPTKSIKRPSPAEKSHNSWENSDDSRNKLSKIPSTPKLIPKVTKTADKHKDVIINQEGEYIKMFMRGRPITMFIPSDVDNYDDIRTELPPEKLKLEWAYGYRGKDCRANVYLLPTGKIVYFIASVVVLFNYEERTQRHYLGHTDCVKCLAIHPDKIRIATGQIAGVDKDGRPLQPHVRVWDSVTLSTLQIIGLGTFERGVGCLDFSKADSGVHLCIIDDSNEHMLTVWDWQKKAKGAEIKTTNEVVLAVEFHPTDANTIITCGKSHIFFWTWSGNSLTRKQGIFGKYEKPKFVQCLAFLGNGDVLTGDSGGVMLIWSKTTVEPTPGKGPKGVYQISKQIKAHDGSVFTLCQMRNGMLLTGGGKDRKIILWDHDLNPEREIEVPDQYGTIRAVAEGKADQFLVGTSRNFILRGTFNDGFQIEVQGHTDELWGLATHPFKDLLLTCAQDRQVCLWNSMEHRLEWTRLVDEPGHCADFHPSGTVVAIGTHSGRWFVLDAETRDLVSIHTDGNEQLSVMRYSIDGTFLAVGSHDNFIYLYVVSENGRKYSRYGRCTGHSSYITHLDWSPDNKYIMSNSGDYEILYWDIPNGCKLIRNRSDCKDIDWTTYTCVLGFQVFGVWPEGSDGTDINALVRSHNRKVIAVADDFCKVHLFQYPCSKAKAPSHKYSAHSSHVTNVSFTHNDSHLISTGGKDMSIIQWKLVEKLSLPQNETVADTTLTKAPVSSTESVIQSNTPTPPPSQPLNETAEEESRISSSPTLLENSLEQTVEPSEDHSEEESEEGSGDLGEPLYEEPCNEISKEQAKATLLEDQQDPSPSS
Chain of UniProt Q16774 (whole entry, looked up): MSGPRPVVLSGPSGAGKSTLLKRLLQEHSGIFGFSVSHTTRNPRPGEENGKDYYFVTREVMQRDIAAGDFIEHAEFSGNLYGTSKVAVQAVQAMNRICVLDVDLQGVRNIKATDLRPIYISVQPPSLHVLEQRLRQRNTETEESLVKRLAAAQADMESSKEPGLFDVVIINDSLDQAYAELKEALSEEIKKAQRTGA
Chain of UniProt Q9UM73 (whole entry, looked up): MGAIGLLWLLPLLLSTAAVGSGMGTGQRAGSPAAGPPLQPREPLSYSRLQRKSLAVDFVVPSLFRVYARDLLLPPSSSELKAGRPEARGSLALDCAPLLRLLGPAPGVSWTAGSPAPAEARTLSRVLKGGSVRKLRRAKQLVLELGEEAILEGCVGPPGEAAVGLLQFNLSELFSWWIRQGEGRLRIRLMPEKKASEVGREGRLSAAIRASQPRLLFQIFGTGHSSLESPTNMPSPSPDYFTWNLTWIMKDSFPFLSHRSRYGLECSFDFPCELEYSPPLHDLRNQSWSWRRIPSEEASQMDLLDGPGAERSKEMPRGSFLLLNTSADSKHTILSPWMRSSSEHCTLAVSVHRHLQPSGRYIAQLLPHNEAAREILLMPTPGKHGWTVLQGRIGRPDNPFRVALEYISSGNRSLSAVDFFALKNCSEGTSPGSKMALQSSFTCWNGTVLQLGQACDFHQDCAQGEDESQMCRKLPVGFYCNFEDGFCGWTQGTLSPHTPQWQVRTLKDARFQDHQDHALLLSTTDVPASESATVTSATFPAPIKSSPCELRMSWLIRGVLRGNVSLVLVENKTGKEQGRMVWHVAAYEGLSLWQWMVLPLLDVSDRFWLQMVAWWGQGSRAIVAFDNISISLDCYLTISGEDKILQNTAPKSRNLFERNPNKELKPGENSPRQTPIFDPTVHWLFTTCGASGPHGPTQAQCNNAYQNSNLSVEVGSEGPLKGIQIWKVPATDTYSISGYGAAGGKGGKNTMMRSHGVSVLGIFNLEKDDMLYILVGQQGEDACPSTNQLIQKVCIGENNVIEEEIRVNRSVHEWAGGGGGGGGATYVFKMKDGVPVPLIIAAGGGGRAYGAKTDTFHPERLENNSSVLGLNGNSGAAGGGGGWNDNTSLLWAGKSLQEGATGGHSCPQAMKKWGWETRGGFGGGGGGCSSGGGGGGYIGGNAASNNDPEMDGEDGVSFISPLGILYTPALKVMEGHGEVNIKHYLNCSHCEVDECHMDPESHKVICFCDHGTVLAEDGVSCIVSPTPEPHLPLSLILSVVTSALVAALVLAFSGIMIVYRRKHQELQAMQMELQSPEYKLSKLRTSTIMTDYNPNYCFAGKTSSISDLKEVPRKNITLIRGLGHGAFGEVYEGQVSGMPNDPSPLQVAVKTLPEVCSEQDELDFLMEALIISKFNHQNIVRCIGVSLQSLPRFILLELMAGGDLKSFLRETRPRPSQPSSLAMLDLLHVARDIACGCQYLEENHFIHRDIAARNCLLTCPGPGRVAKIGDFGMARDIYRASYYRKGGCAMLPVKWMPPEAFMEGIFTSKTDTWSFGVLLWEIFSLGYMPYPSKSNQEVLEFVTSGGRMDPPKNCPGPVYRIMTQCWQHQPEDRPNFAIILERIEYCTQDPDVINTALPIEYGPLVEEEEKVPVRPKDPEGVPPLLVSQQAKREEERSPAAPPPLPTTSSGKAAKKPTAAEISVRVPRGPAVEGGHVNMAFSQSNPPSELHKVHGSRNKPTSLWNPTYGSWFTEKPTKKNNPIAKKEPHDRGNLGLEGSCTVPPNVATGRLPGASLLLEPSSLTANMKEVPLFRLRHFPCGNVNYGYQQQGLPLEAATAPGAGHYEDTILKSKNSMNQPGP
Chain of UniProt P11388 (whole entry, looked up): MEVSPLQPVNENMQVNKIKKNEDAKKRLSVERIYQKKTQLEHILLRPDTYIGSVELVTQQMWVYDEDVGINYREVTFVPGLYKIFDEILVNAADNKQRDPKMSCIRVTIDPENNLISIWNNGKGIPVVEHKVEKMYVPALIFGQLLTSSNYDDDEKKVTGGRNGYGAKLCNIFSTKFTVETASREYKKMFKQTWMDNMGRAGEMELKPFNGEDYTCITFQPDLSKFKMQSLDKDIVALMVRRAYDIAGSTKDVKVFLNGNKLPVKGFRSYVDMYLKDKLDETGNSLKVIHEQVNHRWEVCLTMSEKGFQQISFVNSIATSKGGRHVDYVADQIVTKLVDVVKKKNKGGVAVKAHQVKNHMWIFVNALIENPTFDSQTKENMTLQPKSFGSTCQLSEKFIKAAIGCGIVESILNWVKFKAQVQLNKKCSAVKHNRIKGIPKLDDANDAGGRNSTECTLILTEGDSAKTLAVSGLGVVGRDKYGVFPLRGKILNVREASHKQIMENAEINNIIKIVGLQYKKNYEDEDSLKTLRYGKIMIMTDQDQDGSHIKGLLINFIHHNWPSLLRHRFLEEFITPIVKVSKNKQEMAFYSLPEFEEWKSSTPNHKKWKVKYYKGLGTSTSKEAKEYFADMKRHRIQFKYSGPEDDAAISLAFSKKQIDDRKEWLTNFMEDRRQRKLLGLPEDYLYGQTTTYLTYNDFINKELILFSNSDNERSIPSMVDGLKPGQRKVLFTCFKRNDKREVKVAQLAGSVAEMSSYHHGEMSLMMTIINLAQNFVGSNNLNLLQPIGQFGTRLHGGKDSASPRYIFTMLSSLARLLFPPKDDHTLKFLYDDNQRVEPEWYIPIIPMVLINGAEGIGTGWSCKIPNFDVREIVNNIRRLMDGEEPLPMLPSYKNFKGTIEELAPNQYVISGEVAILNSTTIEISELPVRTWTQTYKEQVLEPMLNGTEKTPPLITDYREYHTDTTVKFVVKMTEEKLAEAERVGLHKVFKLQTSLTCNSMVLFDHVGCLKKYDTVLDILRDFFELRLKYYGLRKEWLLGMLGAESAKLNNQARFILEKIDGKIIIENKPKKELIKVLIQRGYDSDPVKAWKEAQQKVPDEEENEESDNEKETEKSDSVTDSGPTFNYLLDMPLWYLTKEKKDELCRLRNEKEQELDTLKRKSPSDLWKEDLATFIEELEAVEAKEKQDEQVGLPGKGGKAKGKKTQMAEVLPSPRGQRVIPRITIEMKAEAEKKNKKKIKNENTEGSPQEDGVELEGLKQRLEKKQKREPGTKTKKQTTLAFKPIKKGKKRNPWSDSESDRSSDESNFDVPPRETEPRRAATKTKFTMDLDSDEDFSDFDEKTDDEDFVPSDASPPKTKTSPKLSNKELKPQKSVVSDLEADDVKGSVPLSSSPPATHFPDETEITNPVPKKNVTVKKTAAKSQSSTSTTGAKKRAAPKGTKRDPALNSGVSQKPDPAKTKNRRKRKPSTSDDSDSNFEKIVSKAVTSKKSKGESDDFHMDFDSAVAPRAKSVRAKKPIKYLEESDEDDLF
Chain of UniProt P33032 (whole entry, looked up): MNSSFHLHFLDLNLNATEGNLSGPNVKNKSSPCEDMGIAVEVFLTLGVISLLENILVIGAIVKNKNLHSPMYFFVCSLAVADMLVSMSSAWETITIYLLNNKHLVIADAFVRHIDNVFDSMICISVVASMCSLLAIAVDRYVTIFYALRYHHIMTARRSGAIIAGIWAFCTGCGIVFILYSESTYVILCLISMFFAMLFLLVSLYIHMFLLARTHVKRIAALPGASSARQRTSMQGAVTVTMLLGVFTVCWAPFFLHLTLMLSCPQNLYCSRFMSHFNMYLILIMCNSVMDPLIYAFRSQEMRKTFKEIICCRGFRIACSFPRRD
Chain of UniProt Q9Y3R4 (whole entry, looked up): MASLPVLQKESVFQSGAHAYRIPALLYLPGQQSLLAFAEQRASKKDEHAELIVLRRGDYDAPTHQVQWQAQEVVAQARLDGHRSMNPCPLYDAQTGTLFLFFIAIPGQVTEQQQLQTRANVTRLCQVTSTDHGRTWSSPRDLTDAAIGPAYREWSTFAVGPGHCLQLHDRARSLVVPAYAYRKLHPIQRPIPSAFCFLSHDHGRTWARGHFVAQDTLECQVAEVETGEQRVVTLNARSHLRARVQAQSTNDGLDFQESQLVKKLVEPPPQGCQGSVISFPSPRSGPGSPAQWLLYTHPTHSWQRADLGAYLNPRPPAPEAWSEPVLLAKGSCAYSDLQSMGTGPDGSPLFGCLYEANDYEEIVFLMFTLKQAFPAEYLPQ

CCOC(=O)C1=C(CN2CCOCC2)NC(c2nccs2)=NC1c1ccc(F)cc1Br (centres unmarked)
intracellular capsid protein level (Capsid protein (C, Hepatitis B virus genotype D subtype ayw, UniProt P03146); immunoblot; HepG2 expressing HA-HBc, Hepatitis B virus; concentration not given, 3 days, non-toxic concentrations): decreased

NCCCCC(=O)O
normalised MST signal (Sodium- and chloride-dependent taurine transporter (SLC6A6, Homo sapiens, UniProt P31641, G62A); binding, microscale thermophoresis; 977 nM, room temperature, added: 50 nM labelled protein; higher = more binding): -0.0216

[Cl-].[Na+]
reaction velocity (GUK1 (Homo sapiens, UniProt Q16774); enzyme activity, NADH-coupled; 120 mM): 0.00333 µM/s and 0.023 µM/s and -0.00917 µM/s

CN1CCN(c2cc(-c3ccncc3)c(-c3ccc4ccccc4c3)nn2)CC1
activation (Melanocortin receptor 5 (MC5R, Homo sapiens, UniProt P33032); agonist, FLIPR; 12.5 µM): -9.8%

[N-]=[N+]=NCC(=O)N[C@H]1[C@H]([C@H](O)[C@H](O)CO)O[C@@](OC[C@H]2O[C@@H](Oc3ccc([N+](=O)[O-])cc3)[C@H](O)[C@@H](O)[C@H]2O)(C(=O)O)C[C@@H]1O
Vmax (Sialidase-2 (Homo sapiens, UniProt Q9Y3R4); substrate; 10 min, pH 5.0, 37 °C): 0.00087 ± 0.00012 mM/s

O=C(NCCN1CCCC1=O)c1ccc([C@H]2[C@@H](F)[C@@H](F)C[C@@H](F)[C@H]2F)cc1
hepatic clearance (liver microsome stability; human liver microsomes; 1 µM, without NADPH): 3.9 mL/min/kg

CC[C@H](C)[C@H](NC(=O)[C@H](Cc1ccccc1)NC(=O)[C@H](CCC(=O)O)NC(=O)[C@H](CCCNC(=N)N)NC(=O)[C@H](C)NC(=O)[C@H](C)NC(=O)[C@H](CCC(N)=O)NC(=O)[C@H](CCC(=O)O)NC(=O)[C@H](CCC(=O)O)NC(=O)[C@H](CC(C)C)NC(=O)[C@H](Cc1ccc(O)cc1)NC(=O)[C@H](CO)NC(=O)[C@H](CO)NC(=O)[C@@H](NC(=O)[C@H](CC(=O)O)NC(=O)[C@H](CO)NC(=O)[C@@H](NC(=O)[C@H](Cc1ccccc1)NC(=O)[C@@H](NC(=O)CNC(=O)[C@H](CCC(=O)O)NC(=O)[C@H](C)NC(=O)CCc1cnc[nH]1)[C@@H](C)O)[C@@H](C)O)C(C)C)C(=O)N[C@@H](C)C(=O)N[C@@H](Cc1c[nH]c2ccccc12)C(=O)N[C@@H](CC(C)C)C(=O)N[C@H](C(=O)N[C@@H](CCCCNC(=O)COCCOCCNC(=O)COCCOCCNC(=O)CC[C@H](NC(=O)CCCCCCCCCCCCCCCCC(=O)O)C(=O)O)C(=O)NCC(=O)N[C@@H](CCCNC(=N)N)C(=O)N[C@@H](CCCCNc1c(NCCCCCN(O)C(=O)CCC(=O)NCCCCCN(O)C(=O)CCC(=O)NCCCCCN(O)C(C)=O)c(=O)c1=O)C(=O)NCC(=O)NCC(=O)N[C@@H](CO)C(=O)N[C@@H](CCCCNc1c(NCCCCCN(O)C(=O)CCC(=O)NCCCCCN(O)C(=O)CCC(=O)NCCCCCN(O)C(C)=O)c(=O)c1=O)C(=O)O)C(C)C
fold potency loss (Glucagon-like peptide 1 receptor (GLP1R, Homo sapiens, UniProt P43220); agonist, CRE luciferase reporter; BHK cells; Zr-loaded DFO conjugate, added: 1% HSA; reference: parent peptide): 1.8

O=c1nc(SCc2cc(F)cc(C(F)(F)F)c2)nc(SCc2ccc3sccc3c2)[nH]1
linear DNA (DNA topoisomerase 2-alpha (TOP2A, Homo sapiens, UniProt P11388); DNA cleavage; 7.8 µM, added: etoposide 50 µM): 12.1%

COc1cc(N2CCC(N3CCN(C)CC3)CC2)ccc1Nc1ncc(Cl)c(Nc2ccccc2P(C)(C)=O)n1
protein level (ALK tyrosine kinase receptor/Echinoderm microtubule-associated protein-like 4 (Homo sapiens, UniProt Q9HC35+Q9UM73); degrader, immunoblotting, refers to: ALK tyrosine kinase receptor/Echinoderm microtubule-associated protein-like 4; Ba/F3 EML4-ALK; concentration not given, 6 h, unit not given; reference: untreated): 0.944 and 0.916 and 1.11

CN(Cc1cccnc1)C(=O)c1ccc(C2CCCCC2)cc1
hepatic clearance (liver microsome stability; mouse liver microsomes; 1 µM): 87 mL/min/kg

CC1(C)CC2(C)OC(=O)NC2(C)c2ccccc21 (centres unmarked)
fold enrichment (Transcription intermediary factor 1-beta, PHD-bromodomain (TRIM28, Homo sapiens, UniProt Q13263); binding, affinity selection mass spectrometry; reference: other proteins in batch): 0.833

Repeated from above:
NCCCCC(=O)O
normalised MST signal (Sodium- and chloride-dependent taurine transporter (SLC6A6, Homo sapiens, UniProt P31641, G62A); binding, microscale thermophoresis; 977 nM, room temperature, added: 50 nM labelled protein; higher = more binding): -0.0216

[Cl-].[Na+]
reaction velocity (GUK1 (Homo sapiens, UniProt Q16774); enzyme activity, NADH-coupled; 120 mM): 0.00333 µM/s and 0.023 µM/s and -0.00917 µM/s
